{"data": "Measured values from different studies", "note": "Protocols differ between the studies behind these lines. “And” joins repeats or separate records; there may be more than shown. ± marks the error that the study gave."}
{"SMILES": "CC(=O)c1ncn2c(=O)n(C)nnc12", "test system": "mice", "setting": "intravenous, 125 mg/kg single dose, 7 days", "endpoint": "body weight", "result": "31 ± 1 g"}
{"SMILES": "CC(=O)NCCCC[C@@H]1NC(=O)[C@H](Cc2c[nH]c3c(C)cccc23)NC(=O)[C@H]([C@@H](C)O)NC(=O)[C@H](CC(N)=O)NC(=O)[C@@H](NC(C)=O)C(C)(C)SSC(C)(C)[C@@H](C(=O)N[C@@H](Cc2ccc(OCCN)cc2)C(=O)N[C@@H](Cc2ccc3ccccc3c2)C(=O)NC2(C(=O)N[C@@H](CCC(=O)O)C(=O)N[C@@H](CC(N)=O)C(=O)N[C@@H](Cc3cccnc3)C(=O)N(C)CC(N)=O)CCOCC2)NC1=O", "test system": "human, blood", "setting": "0.013 µM, 2 h", "endpoint": "blood to plasma ratio", "result": "0.53 ± 0.02"}
{"SMILES": "CCCC[C@H]1C(=O)N(C)[C@@H](CCCC)C(=O)N[C@@H](CCCNC(=O)CN2CCN(CC(=O)O)CCN(CC(=O)O)CCN(CC(=O)O)CC2)C(=O)N[C@H](C(=O)NCC(N)=O)CSCC(=O)N[C@@H](Cc2ccc(O)cc2)C(=O)N(C)[C@@H](C)C(=O)N[C@@H](CC(N)=O)C(=O)N2CCC[C@H]2C(=O)N[C@@H](Cc2c[nH]cn2)C(=O)N[C@@H](CC(C)C)C(=O)N(C)CC(=O)N[C@@H](Cc2c[nH]c3ccccc23)C(=O)N[C@@H](CO)C(=O)N[C@@H](Cc2c[nH]c3ccccc23)C(=O)N1C [gallium-68 labelled]", "test system": "NOD/SCID mice, CHO-hPD-L1 xenograft, kidney", "setting": "60 min, added: blocking agent 50 µg co-injected", "endpoint": "tissue uptake", "result": "56.1 ± 16.4 %ID/g"}
{"SMILES": "CN1Cc2cc(Cl)ccc2-n2c(nnc2C2CCN(c3cccc([18F])n3)CC2)C1", "test": "PET two-tissue compartment model", "test system": "rhesus monkey, amygdala", "setting": "intravenous, dose not given, 100 min scan, baseline scan", "endpoint": "total volume of distribution", "result": "1.26 ± 0.42 mL/cm3"}
{"SMILES": "Cc1ccccc1-c1ccc(-c2nc(-c3ccc(CN(C)CCCC(=O)O)c([18F])c3)no2)cc1C(F)(F)F", "test system": "rat, blood", "setting": "30 min", "endpoint": "tracer uptake", "result": "0.09 %ID/g"}
{"SMILES": "C#Cc1c(F)ccc2cc(O)cc(-c3ncc4c(N5CC6CCC(C5)N6C(=O)OC(C)OC(=O)C(C)C)nc(OC[C@@]56CCCN5C[C@H](F)C6)nc4c3F)c12 (stereo partly drawn)", "test": "chemical stability", "test system": "simulated intestinal fluid", "setting": "1 µM, 30 min", "endpoint": "compound remaining", "result": "102%"}
{"SMILES": "CC(C)[C@@H]1NC(=O)CNC(=O)[C@H](CC(N)=O)NC(=O)[C@H](CCCNC(=N)N)NC(=O)[C@H](Cc2ccc(O)cc2)NC(=O)[C@H](C(C)C)NC(=O)[C@@H](NC(=O)[C@@H](NC(=O)[C@H](CC(N)=O)NC(=O)[C@H](Cc2c[nH]c3ccccc23)NC(=O)[C@H](C)NC(=O)[C@H](Cc2ccccc2)NC(=O)CNC(=O)[C@H](CCCCN)NC(=O)[C@H](Cc2ccccc2)NC(=O)[C@H](Cc2ccccc2)NC(=O)[C@H](CCCCN)NC(=O)OCC2c3ccccc3-c3ccccc32)C(C)C)CSSC[C@@H](C(=O)N[C@@H](Cc2c[nH]cn2)C(=O)N[C@@H](CCCNC(=N)N)C(=O)N[C@@H](CCCNC(=N)N)C(=O)N[C@@H](C)C(=O)N[C@@H](CC(N)=O)C(N)=O)NC(=O)[C@H](C(C)C)NC(=O)[C@H](CCCNC(=N)N)NC1=O", "test": "HPLC", "test system": "mouse kidney homogenate 50 mg/mL", "setting": "4.00 h, 37 °C", "endpoint": "peptide remaining", "result": "72.6% and 66.5% and 68.7%"}
{"SMILES": "N#[11C]c1ccc(-c2csc(NN=C3CCCC3)n2)cc1", "test system": "C57BL/6 mice, male, thymus", "setting": "intravenous, 3 MBq, 60 min", "endpoint": "radioactivity uptake", "result": "0.6 ± 0.36 %ID/g"}
{"SMILES": "CC(C)[C@H](NC(=O)[C@@H](NC(=O)[C@H](CCCNC(=N)N)NC(=O)[C@H](CCCNC(=N)N)NC(=O)[C@H](CCCNC(=N)N)NC(=O)[C@H](CCC(N)=O)NC(=O)[C@H](CCCNC(=N)N)NC(=O)[C@H](CCCNC(=N)N)NC(=O)[C@H](CCCCN)NC(=O)[C@H](CCCCN)NC(=O)[C@H](CCCNC(=N)N)NC(=O)CN)[C@@H](C)O)C(=O)N[C@H](C(=O)N[C@@H](CO)C(=O)N1CCC[C@H]1C(=O)O)[C@@H](C)O", "test system": "ICR mice, female, stomach", "setting": "intranasal, 10 mg/kg daily, 4 weeks", "endpoint": "organ weight", "result": "0.374 ± 0.076 g"}
{"SMILES": "CSCC[C@@H]1NC(=O)[C@H](C(C)C)NC(=O)[C@H](CCCNC(=N)N)NC(=O)CNC(=O)[C@@H]2CCCN2C(=O)[C@@H](NC(=O)CNC(=O)[C@H](CO)NC(=O)CNC(=O)[C@H](CO)NC(=S)Nc2ccc(C[C@H]3CN(CC(=O)O)CCN(CC(=O)O)CCN3CC(=O)O)cc2)CSSC[C@@H](C(N)=O)NC(=O)[C@@H]2CCCN2C(=O)CNC(=O)[C@H](CCC(=O)O)NC(=O)[C@H](CC(=O)O)NC(=O)[C@H](CC(=O)O)NC(=O)CNC(=O)[C@H](CC(C)C)NC(=O)[C@H](Cc2c[nH]cn2)NC(=O)[C@H](CC(C)C)NC(=O)CNC(=O)[C@H](Cc2c[nH]cn2)NC1=O [copper-64 labelled]", "test": "dynamic PET", "test system": "CD rat, myocardial infarction model, left ventricular blood pool", "setting": "intravenous, 18.5 MBq, 15 to 60 min", "endpoint": "half-life", "result": "27.5 ± 2.3 min"}
{"SMILES": "C=CC(=O)Nc1cccc(Cn2ncc3cnc(Nc4cnn(CCOC)c4)nc32)c1", "test system": "Sprague-Dawley rat, male", "setting": "oral, 180 mg/kg, day 28, 28-day subacute toxicity study", "endpoint": "RDW-SD", "result": "33.5 ± 1.46%"}
{"SMILES": "O=C1NC2(CC2)COc2ncc(F)cc2[C@H]2COCCN2c2ccn3ncc1c3n2", "test system": "Sprague-Dawley rat, female, uterus", "setting": "oral, 2.5 mg/kg/day, 4 weeks dosing, end of recovery", "endpoint": "organ-to-brain weight ratio", "result": "31.5 ± 11.9%"}
{"note": "Excerpt of the above:"}
{"SMILES": "CSCC[C@@H]1NC(=O)[C@H](C(C)C)NC(=O)[C@H](CCCNC(=N)N)NC(=O)CNC(=O)[C@@H]2CCCN2C(=O)[C@@H](NC(=O)CNC(=O)[C@H](CO)NC(=O)CNC(=O)[C@H](CO)NC(=S)Nc2ccc(C[C@H]3CN(CC(=O)O)CCN(CC(=O)O)CCN3CC(=O)O)cc2)CSSC[C@@H](C(N)=O)NC(=O)[C@@H]2CCCN2C(=O)CNC(=O)[C@H](CCC(=O)O)NC(=O)[C@H](CC(=O)O)NC(=O)[C@H](CC(=O)O)NC(=O)CNC(=O)[C@H](CC(C)C)NC(=O)[C@H](Cc2c[nH]cn2)NC(=O)[C@H](CC(C)C)NC(=O)CNC(=O)[C@H](Cc2c[nH]cn2)NC1=O [copper-64 labelled]", "test": "dynamic PET", "test system": "CD rat, myocardial infarction model, left ventricular blood pool", "setting": "intravenous, 18.5 MBq, 15 to 60 min", "endpoint": "half-life", "result": "27.5 ± 2.3 min"}
